Assay results gathered from unrelated publications.
A part holds a random share of what one study measured. Values joined by “and” are separate records of one study, mostly repeats; a detail may differ.
Sequence of UniProt P08581 (whole entry, looked up): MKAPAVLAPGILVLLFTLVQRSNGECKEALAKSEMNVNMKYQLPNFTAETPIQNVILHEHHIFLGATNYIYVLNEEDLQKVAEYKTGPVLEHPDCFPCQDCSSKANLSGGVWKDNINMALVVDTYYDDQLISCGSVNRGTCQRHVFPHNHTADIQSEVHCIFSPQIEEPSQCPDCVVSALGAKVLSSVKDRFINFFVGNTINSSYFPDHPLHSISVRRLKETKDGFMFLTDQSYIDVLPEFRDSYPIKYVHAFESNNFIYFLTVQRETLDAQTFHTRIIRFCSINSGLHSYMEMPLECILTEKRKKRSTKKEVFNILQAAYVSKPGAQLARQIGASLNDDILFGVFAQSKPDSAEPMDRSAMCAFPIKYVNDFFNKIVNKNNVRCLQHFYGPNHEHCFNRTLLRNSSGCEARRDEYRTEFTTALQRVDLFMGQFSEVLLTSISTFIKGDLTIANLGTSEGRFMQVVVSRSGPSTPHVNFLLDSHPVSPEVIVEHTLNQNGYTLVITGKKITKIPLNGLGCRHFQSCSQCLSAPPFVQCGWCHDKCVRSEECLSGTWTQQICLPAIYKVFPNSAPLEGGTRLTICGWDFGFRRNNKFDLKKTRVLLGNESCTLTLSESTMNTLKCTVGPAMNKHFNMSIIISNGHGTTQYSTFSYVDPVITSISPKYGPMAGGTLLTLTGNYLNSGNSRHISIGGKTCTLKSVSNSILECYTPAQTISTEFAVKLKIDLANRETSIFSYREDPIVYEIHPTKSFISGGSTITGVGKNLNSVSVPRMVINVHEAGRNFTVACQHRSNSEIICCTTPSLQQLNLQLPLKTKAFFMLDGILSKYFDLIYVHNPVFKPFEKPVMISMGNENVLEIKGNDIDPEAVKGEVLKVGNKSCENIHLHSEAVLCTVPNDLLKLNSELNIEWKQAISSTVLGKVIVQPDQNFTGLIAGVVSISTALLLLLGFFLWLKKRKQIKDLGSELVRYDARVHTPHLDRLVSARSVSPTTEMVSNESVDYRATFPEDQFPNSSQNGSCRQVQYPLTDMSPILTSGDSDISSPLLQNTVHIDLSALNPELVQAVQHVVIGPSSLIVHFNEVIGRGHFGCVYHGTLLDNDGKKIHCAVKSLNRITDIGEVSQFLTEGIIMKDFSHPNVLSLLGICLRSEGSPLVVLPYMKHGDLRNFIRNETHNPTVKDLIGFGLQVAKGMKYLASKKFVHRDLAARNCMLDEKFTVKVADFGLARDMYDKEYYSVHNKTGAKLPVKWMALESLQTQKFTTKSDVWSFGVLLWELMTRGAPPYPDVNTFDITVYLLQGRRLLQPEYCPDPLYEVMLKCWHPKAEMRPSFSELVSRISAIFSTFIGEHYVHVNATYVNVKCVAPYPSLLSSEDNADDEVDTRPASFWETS
Sequence of UniProt Q13470 (whole entry, looked up): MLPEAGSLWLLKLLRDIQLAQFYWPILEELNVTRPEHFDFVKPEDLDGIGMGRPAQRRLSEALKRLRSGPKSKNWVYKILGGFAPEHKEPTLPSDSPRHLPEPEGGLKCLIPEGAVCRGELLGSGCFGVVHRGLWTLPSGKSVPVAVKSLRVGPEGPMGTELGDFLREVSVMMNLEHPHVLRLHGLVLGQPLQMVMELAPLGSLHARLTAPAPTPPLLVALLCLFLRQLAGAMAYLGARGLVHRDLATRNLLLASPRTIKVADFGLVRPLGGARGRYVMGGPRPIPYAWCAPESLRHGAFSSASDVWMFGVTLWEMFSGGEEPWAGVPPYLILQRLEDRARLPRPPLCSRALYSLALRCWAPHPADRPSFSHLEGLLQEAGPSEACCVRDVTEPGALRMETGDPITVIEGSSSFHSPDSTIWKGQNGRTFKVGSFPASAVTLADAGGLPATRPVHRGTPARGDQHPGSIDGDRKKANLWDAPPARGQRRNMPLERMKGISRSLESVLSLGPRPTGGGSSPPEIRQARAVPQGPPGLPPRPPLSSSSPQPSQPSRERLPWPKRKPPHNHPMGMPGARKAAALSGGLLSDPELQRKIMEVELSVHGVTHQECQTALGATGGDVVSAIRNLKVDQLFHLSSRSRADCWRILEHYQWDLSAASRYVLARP
Sequence of UniProt O75676 (whole entry, looked up): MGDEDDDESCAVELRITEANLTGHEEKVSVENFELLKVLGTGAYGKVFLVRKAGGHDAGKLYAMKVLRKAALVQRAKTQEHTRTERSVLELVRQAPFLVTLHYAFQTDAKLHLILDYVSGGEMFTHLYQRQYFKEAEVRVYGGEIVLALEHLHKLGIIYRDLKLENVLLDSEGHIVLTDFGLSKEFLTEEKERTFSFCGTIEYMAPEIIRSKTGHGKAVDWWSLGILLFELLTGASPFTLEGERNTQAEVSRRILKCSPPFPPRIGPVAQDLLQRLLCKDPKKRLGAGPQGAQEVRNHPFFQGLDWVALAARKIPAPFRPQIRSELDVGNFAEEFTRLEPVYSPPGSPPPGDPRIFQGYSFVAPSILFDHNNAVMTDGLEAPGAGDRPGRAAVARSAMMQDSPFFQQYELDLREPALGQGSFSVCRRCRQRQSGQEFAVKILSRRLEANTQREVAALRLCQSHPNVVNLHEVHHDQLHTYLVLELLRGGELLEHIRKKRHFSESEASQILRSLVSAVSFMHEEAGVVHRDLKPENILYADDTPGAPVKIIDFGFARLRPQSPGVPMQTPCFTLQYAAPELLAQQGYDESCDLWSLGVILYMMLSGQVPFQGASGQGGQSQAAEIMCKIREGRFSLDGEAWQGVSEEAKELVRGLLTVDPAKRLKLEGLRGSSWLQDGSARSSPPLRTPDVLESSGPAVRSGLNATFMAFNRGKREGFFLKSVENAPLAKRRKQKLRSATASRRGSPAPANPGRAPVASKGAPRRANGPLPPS
Sequence of UniProt P32298 (whole entry, looked up): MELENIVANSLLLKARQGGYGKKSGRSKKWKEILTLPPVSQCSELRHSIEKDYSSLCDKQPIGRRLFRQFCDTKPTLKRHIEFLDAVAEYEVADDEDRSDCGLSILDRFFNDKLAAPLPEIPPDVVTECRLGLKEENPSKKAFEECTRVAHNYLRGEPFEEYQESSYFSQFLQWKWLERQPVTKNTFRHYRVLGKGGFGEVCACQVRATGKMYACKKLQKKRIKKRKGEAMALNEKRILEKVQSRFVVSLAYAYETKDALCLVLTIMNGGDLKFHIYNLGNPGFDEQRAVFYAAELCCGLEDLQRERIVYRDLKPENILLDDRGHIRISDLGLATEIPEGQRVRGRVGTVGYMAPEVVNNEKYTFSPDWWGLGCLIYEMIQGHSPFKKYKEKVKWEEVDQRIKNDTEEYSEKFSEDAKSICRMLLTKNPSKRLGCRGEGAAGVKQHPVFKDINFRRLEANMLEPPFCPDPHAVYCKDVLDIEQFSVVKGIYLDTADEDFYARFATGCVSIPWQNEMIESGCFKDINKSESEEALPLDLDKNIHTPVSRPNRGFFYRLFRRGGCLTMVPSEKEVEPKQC
Sequence of UniProt P31751 (whole entry, looked up): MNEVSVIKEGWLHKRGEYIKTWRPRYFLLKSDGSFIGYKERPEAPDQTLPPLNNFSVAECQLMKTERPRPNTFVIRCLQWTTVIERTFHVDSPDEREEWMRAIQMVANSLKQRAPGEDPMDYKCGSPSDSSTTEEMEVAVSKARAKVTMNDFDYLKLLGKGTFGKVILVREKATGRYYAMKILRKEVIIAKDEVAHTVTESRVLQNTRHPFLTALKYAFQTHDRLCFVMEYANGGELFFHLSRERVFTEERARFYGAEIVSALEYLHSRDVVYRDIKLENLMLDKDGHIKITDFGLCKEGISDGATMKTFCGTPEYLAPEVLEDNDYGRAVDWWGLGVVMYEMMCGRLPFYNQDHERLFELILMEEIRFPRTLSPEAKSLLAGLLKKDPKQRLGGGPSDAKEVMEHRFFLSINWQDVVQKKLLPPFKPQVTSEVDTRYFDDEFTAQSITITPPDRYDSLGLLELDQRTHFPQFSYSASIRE
Sequence of UniProt Q9UPZ9 (whole entry, looked up): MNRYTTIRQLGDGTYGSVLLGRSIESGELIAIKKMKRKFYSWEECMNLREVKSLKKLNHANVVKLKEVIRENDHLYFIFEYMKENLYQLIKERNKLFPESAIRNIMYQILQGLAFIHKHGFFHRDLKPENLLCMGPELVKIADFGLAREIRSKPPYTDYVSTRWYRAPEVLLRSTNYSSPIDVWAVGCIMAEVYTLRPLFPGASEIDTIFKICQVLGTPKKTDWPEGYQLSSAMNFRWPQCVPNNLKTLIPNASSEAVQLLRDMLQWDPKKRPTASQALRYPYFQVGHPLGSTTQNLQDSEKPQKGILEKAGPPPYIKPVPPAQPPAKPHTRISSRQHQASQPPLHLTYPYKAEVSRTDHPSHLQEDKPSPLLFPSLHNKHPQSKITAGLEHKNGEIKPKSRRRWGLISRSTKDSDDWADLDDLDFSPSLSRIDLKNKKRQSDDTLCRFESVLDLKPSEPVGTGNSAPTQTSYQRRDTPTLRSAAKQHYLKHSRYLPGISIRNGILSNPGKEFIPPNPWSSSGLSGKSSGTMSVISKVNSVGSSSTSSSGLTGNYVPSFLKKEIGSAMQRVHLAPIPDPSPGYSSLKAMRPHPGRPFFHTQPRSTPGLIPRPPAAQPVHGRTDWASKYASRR
Sequence of UniProt Q9HAZ1 (whole entry, looked up): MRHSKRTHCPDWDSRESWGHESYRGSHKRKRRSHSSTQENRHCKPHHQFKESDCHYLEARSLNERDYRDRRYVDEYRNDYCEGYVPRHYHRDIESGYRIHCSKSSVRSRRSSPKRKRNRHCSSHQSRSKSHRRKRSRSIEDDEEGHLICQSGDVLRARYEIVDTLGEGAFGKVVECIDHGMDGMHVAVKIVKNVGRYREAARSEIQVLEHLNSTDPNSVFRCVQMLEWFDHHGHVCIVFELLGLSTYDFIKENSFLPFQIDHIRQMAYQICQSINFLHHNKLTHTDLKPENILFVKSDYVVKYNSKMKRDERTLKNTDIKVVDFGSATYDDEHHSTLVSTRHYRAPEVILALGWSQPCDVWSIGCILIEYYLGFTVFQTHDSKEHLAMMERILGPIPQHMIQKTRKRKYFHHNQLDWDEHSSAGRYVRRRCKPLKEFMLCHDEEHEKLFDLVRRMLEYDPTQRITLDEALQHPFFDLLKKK

Set 1
Species: mouse
Medium: microsomes or S9
Concentration: 2 µM
Time: 0.5 h
Endpoint: remaining compound
CN1C(=O)C(O)(C2OC(C)(C)CCC2=O)c2ccccc21 (stereo not shown): 34.9%
Cc1cccc(C2NCCc3c2[nH]c2ccccc32)c1 (stereo not shown): 17.7%
Cc1cc(-c2cc(=O)n(C)n2C(F)F)c(F)cc1Cl: 3.48%
Nc1nc(N2CCOCC2)[nH]c(=O)c1Br: 96.8%
O=c1cc(O)c2sc3nc(-c4cccs4)cc(-c4ccc(F)cc4)c3c2[nH]1: 52.9%
Cc1ccc2c(c1C)NC(=O)CC2c1c(F)cccc1Cl (stereo not shown): 4.14%
COc1nc([N+](=O)[O-])cn1CC(OCc1ccc(F)cc1)c1ccc(F)cc1F (stereo not shown): 0.501%
CCC(NC(=O)C1=NNC(=O)CC1)c1ncccc1C (stereo not shown): 90.4%

Set 2
Compound: O=C1Nc2ccccc2/C1=C\c1c(Cl)[nH]c2ccccc12
Effect on: enzyme activity
Mode: inhibitor
Concentration: 0.5 µM
Relative to: control
Endpoint: remaining activity
CLK4 (Homo sapiens, UniProt Q9HAZ1): 105%
AKT2 (Homo sapiens, UniProt P31751): 96.8%
PLK3 (Homo sapiens, UniProt Q9H4B4): 101%
ROCK1 (Homo sapiens, UniProt Q13464): 101%
DCLK2 (Homo sapiens, UniProt Q8N568): 93.5%
KDR (Homo sapiens, UniProt P35968): 96.3%
GRK4 (Homo sapiens, UniProt P32298): 102%
RPS6KA4 (Homo sapiens, UniProt O75676): 93.6%
MINK1 (Homo sapiens, UniProt Q8N4C8): 94.9%
MAPK1 (Homo sapiens, UniProt P28482): 96.4%
MARK2 (Homo sapiens, UniProt Q7KZI7): 94.7%
MAPK11 (Homo sapiens, UniProt Q15759): 94.5%
NEK3 (Homo sapiens, UniProt P51956): 91.2%
MET (Homo sapiens, UniProt P08581): 109%

Set 3
SMILES: Cn1nc(C(F)(F)F)cc1-c1cnc(N2CCc3cc(S(=O)(=O)Nc4c(F)cc(Cl)cc4F)cc(N4CCCC4=O)c32)nc1
Method: competition with immobilised ligand
Concentration: 1 µM
Endpoint: remaining binding
SRMS (Homo sapiens, UniProt Q9H3Y6); cell-free assay: 100%
PRKG1 (Homo sapiens, UniProt Q13976); cell-free assay: 87%
STK4 (Homo sapiens, UniProt Q13043); cell-free assay: 92%
TNK1 (Homo sapiens, UniProt Q13470); cell-free assay: 100%
Tyrosine-protein kinase ABL1, phosphorylated (ABL1, Homo sapiens, UniProt P00519, Q252H); cell-free assay: 99%
MET (Homo sapiens, UniProt P08581); cell-free assay: 100%
CILK1 (Homo sapiens, UniProt Q9UPZ9); binding: 84%
FGFR4 (Homo sapiens, UniProt P22455); cell-free assay: 69%

Set 4
Compound: CC(=O)N[C@@H](Cc1c[nH]c2ccccc12)C(=O)N[C@@H](CCC(=O)C=[N+]=[N-])C(=O)OC(C)C
Endpoint: tumour volume
mice, MC-38 tumour rechallenge; 0.26 mg/kg, day 8 after injection: 20.5 mm3 and 0 mm3
mouse, EL4 tumour; subcutaneous, 1 mg/kg, day 10: 315 mm3 and 248 mm3 and 460 mm3 and 318 mm3 and 141 mm3 and 47.8 mm3
C57BL/6 CES1-/- mouse, EL4 tumour; intravenous, 1 mg/kg DON equivalent, treatment day 9, 5 days per week: 593 mm3 and 246 mm3 and 528 mm3 and 783 mm3 and 626 mm3 and 282 mm3 and 342 mm3 and 516 mm3
C57BL/6 CES1-/- mouse, EL4 tumour; intravenous, 1 mg/kg DON equivalent, treatment day 16, 5 days per week: 0 mm3 and 102 mm3 and 179 mm3 and 101 mm3 and 85.2 mm3 and 85 mm3
C57BL/6 CES1-/- mouse, EL4 tumour; intravenous, 1 mg/kg DON equivalent, treatment day 18, 5 days per week: 0 mm3
CES1-/- mice, OVA-expressing MC-38 tumour; dose not given, day 14 after injection: 0 mm3 and 84 mm3 and 144 mm3 and 26 mm3 and 235 mm3 and 63 mm3
C57BL/6 CES1-/- mouse, EL4 tumour; intravenous, 1 mg/kg DON equivalent, treatment day 17, 5 days per week: 0 mm3 and 86.9 mm3 and 88.9 mm3 and 154 mm3
mouse, EL4 tumour; subcutaneous, 0.3 mg/kg, day 7: 814 mm3 and 520 mm3 and 256 mm3 and 748 mm3 and 441 mm3 and 438 mm3
mice, MC-38 tumour rechallenge; 0.26 mg/kg, day 6 after injection: 4 mm3 and 32.7 mm3
mice, MC-38 tumour rechallenge; 0.26 mg/kg, day 53 after injection: 0 mm3

Some of these lines once more (set 2):
AKT2 (Homo sapiens, UniProt P31751): 96.8%
PLK3 (Homo sapiens, UniProt Q9H4B4): 101%
ROCK1 (Homo sapiens, UniProt Q13464): 101%
DCLK2 (Homo sapiens, UniProt Q8N568): 93.5%
KDR (Homo sapiens, UniProt P35968): 96.3%
GRK4 (Homo sapiens, UniProt P32298): 102%
